Assay results pooled from the literature.
Protocols differ between the studies behind these lines. ± marks the error that the study gave.
Target: Cytochrome P450 1A2 (CYP1A2, Homo sapiens, UniProt P05177)
Chain of UniProt P05177 (whole entry, looked up): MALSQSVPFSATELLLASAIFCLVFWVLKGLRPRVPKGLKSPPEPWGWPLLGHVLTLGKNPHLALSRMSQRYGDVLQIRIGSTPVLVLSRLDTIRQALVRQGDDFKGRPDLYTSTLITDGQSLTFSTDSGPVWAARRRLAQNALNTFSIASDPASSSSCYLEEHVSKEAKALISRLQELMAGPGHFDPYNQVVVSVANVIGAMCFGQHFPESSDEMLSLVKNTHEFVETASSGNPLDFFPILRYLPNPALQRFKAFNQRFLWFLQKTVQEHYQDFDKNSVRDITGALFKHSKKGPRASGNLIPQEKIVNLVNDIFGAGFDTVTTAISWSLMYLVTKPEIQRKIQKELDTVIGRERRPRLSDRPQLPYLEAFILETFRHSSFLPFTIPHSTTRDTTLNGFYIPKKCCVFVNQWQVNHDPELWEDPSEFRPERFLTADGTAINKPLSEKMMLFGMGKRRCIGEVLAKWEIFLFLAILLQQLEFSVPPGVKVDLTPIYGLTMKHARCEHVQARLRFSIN

Cc1ccc(N2CC3CCC(C2)N3C)cc1C(=O)N[C@H](C)c1cc(-c2cnn(C)c2)nc2ccccc12 — IC50 (enzyme activity): > 50 µM
c1ccc(C2(CCNC3CCC4(SCCS4)c4ccccc43)CCOC3(CCCC3)C2)nc1 (centres unmarked) — IC50 (enzyme activity, inhibitor; human, liver microsomes): > 30 µM
O=C1Cc2cc(CCN3CCN(C4=NS(=O)(=O)c5ccccc54)CC3)c(Cl)cc2N1 — IC50 (inhibitor; human liver microsomes; together with: phenacetin): 17.1 µM
C[C@H](NCc1ccc(-c2ccc(C(F)(F)F)cc2)cc1)C(N)=O — IC50 (enzyme activity, inhibitor, luciferase; 1A2; pH 7.4): > 10 µM
C(#Cc1cncc(OC[C@@H]2CCN2)c1)c1ccccc1 — IC50 (enzyme activity, inhibitor, fluorescence): 10.6 µM
COc1ccc(F)cc1S(=O)(=O)Nc1cnc2c(c1)C(=O)NCCO2 — IC50 (enzyme activity, inhibitor; human, liver microsomes; with preincubation): > 100 µM
CCn1ccc(-c2cc(-c3cnn(C)c3)cc([C@@H](C)NC(=O)c3cc(OCCN(C)C)ccc3C)c2)n1 — IC50 (enzyme activity, inhibitor; pooled human liver microsomes; 10 (unit not given)): > 50 µM
CCCCCc1cc(O)c2c(c1)OC(C)(C)C1CCC(C)=CC21 (single isomer, unassigned; (-)) — IC50 (enzyme activity, inhibitor; microsomes from HEK293 cells; pH 7.4, together with: phenacetin): 2.7 ± 1.2 µM
